Assay results collected from several papers.
Every numbered part comes from another study and shows a few of its results, in no order. Changes are numbered by the printed parent chain.

Sample 1 — technique: Sort-seq; refers to: YFP reporter; matrix: E. coli; notes: PhoQ-PhoP variant library; with: 10 µM Mg2+; relative to: high Mg2+ state; reading: higher = stronger signaling; quantity: fold induction
Molecule: PhoQ, residues 284 288 289 292 302 303 SMMNNA
target = PhoP, residues 12 14 15 18 19 HHYTI (Escherichia coli, UniProt P23836); result = 0.648
target = PhoP, residues 12 14 15 18 19 SFCSL (Escherichia coli, UniProt P23836); result = 15.5
target = PhoP, residues 12 14 15 18 19 AYFRS (Escherichia coli, UniProt P23836); result = 4.88

Sample 2 — target: CCNB2, cyclin fold, Cln2 fusion (human); technique: yeast growth competition, sequencing; matrix: yeast; notes: strong parent motif; relative to: not given; reading: higher = stronger binding; quantity: normalised enrichment score
Starting sequence: E2F1 docking peptide (human); PPVKRRLDFETDH; partner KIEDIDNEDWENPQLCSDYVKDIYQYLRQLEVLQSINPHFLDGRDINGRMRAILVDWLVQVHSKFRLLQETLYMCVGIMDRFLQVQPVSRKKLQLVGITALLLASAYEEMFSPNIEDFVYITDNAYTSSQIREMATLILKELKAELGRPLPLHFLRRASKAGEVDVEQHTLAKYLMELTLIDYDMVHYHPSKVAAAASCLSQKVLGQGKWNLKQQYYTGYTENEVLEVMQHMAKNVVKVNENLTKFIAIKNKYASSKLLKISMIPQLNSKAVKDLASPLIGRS
Variant = D12I; result = 3.56
Variant = D12A; result = 3.4
Variant = D12V; result = 3.66
Variant = F9S; result = 0.339
Variant = P2T; result = 3
Variant = R5K; result = 2.53
Variant = E10M; result = 2.72
Variant = L7P; result = 0.0692
Variant = E10D; result = 4.09
Variant = D8C; result = 3.42

Sample 3 — technique: RNA Bind-n-Seq; molecule type: RNA; matrix: in vitro; concentration: 365 nM; relative to: no-protein control; reading: higher = stronger binding; quantity: RBNS enrichment (R)
Target: RNA binding protein fox-1 homolog 2, RRM domain, GST-SBP tag (RBFOX2, Homo sapiens, UniProt O43251-10, residues 100-194)
Notes: natural RNA segment, single round, ends assumed
Shared flanks, not repeated: GGGAGUUCUACAGUCCGACGAUC … UGGAAUUCUCGGGUGCCAA
Residues (chain): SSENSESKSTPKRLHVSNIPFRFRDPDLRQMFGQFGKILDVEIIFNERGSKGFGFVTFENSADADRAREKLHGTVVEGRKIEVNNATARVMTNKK
Oligonucleotide = CCUUUCAGCAGUUAUGUAGCCUGUAUUCAAUGGUAGGAAAUUACAGGAAAAAAAGUUCUAAGCUUCUUAUGUGGUCCACAAGGAAUCCAUAUUUGAGAAACAUGAUUAGG; result = 0.695
Oligonucleotide = CUGUGUUACUCAUGUACAUUGGUCUUUCUACAUAGUUAUUCUAUCACUGGCAAUAUUUGUUCUGGUUUAGUGUUCUGUAUUUUAAGGUGUACGUAUCAUUUCUAAUUUUA; result = 0.492
Oligonucleotide = UUUUCUAUAUGGGGAUUUUCUAUUUAUGUAGGUAAUAUUGUUCUAUUUGUAUAUAUUGAGAUAAUUUAUUUAAUAUACUUUAAAUAAAGGUGACUGGGAAUUGUUACUGU; result = 0.864
Oligonucleotide = UGAGAAAGUUAAUAUGUGGCCUCCUUUUCUGAAGCCAGAUCAAACUGUUACCUUGUGUUCCACCUUGAAUCUCACAGCGUCCCCUUCUGCAAUGUAGGUCUCCUUCCUGU; result = 0.476
Oligonucleotide = CCUAAGAAAAAAAGUCCGCGAGUAUUAAAUAUUUAGAUCAAUGUUUAUAAAAUGAUUACUUUGUAUAUCUCAUUAUUCCUAUUUUGGAAUAAAAACUGACCUUCUUUAAU; result = 0.709
Oligonucleotide = CGGACUCAAACGCCGCUGACUGCCACCCACACGCCCUCCCCAGACUCCACCGUCAGCUGUAACCCUCACCCACAGCCCCUGCUGGGCCCACCACCUGUCCGUCCCUGUCC; result = 0.771
Oligonucleotide = UUUCAGUUUUCAUUUCGACAAACAAGCACUGUAAUUAUAGCUAUUAGAAUAAAAUCUCUUAACUAUUUCACCGGCUCUCCAGUGCUUCCACACAGGCAUGCUGCCCCCAG; result = 0.664
Oligonucleotide = CACUAGUGGGACAGCGGUUUUCAAUGGUGCUGAUCAGUCGACUCGUCAACUCCUGUCAUUUUUAGAAAAUAAAACUGGAAAUUGAAUGUGGGUGGCAUGAUUGUACCCUC; result = 13.3
Oligonucleotide = UAACCCUUCACAAAAGAAAAGAUCACCAAAAGGGGUUGUAUAUUUGAAAACAUUAUACUUGUAUCCAUUUUCCUCUGUUCAACAAAGAGAAAGUUCAAGUUAGCUUCAGU; result = 0.32
Oligonucleotide = CUUUUGUGAAAUUCAGAAUUUUUCUUUUUAAUAUAUUUCUUCCAUGGAAGAGUUGUCAUCACUAAAACUUCAGUACUGAGAGUAACAUGACUCAGUAGCCACAGAAGCUA; result = 0.469
Oligonucleotide = CUGAGCGGGCCCUCCAGUGUUGUCCAAGGAAAUGUAGAAUCACUUUGUAGAUAUGGAGAUGAAGAAGACAAAUCUUUAUUAUAAUAUUGAUCAGUUUUAUGCCGCAUUGU; result = 0.526

Mixed results — technique: cross-linking MS
Molecule = PPP2R1A (Homo sapiens, UniProt P30153); partner = CCDC6 (Homo sapiens, UniProt Q16204); matrix = cell fractions; with = DSSO; quantity = cross-linked residues; result = K331 to K71
Molecule = UQCC2 (Homo sapiens, UniProt Q9BRT2); partner = UQCC1 (Homo sapiens, UniProt Q9NVA1); notes = hits only; quantity = interaction screen; result = cross-linked
Molecule = TIMM8B (Homo sapiens, UniProt Q9Y5J9); partner = TIMM13 (Homo sapiens, UniProt Q9Y5L4); notes = hits only; quantity = interaction screen; result = cross-linked
Molecule = PDIA4 (Homo sapiens, UniProt P13667); partner = PDIA3 (Homo sapiens, UniProt P30101); notes = hits only; quantity = interaction screen; result = cross-linked

Excerpt of the above (sample 1):
target = PhoP, residues 12 14 15 18 19 HHYTI (Escherichia coli, UniProt P23836); result = 0.648
target = PhoP, residues 12 14 15 18 19 AYFRS (Escherichia coli, UniProt P23836); result = 4.88
target = PhoP, residues 12 14 15 18 19 SFCSL (Escherichia coli, UniProt P23836); result = 15.5
